Assay results gathered from unrelated publications.
Every numbered part comes from another study and shows a few of its results, in no order. Substitutions count along the parent as printed.

Study 1
Target: RNA binding protein fox-1 homolog 2, RRM domain, GST-SBP tag (RBFOX2, Homo sapiens, UniProt O43251-10, residues 100-194)
Method: RNA Bind-n-Seq
Form: RNA
Matrix: in vitro
Concentration: 365 nM
Notes: natural RNA segment, single round, ends assumed
Reference: no-protein control
Reading: higher = stronger binding
Shared flanks, not repeated: GGGAGUUCUACAGUCCGACGAUC … UGGAAUUCUCGGGUGCCAA
Strand	RBNS enrichment (R)
AGAUACGAAAUCAGUUUCUCAAACUGAGCUUCAGAAAGGGGCAUUUUGUACUCUUGUUUUUGCAUAACUGGUUUUGUUUUUUUGCAGAAUUAACUAUAACAAUCACUGGC	0.497
GGGAAAACACACACACGGAAAAAAAAUUGUAAGCACUUUUUUUGUAAAACCAAUGUCUGUUUUGUUACAUACCUUUCAUGUCGUGCUUUGUAAAUGUCUUAUUUGUGUAA	0.56
AGAUUAUUUCAGAAAAAUGCAAUAAGGGGAAUAGUUUUGGGGUUUAUUUUUUAUUUUAAAAGAAAAUUGACUUAUUUACCACAAGCUAUUUUUUUCCCUUCUGGCUGUAA	0.695
GAUGAACAACAAUUCAACGUGCUUCUCUCAGUGCCUGGAGGAUGCAGCUCUCCACACGCAGGGACUUUAUUUGGGGACAUCUGUCACCUUUGGGGUUGCCAUGGCCAAUG	0.433
GGAGAUUGAGUUUAUACCCCCUAGUCUCUCACAUUCAAAUCUAGUAGCCUGUAACCACUUUUAAAUGGCUUGAAAUUAGGAAACUUGUACAUUUAAUGUACACUUUGCGG	1.79
UUACAGCUUUGCCAUGUCCCCACCUGCUGGCCUCAGGCUGCCUGGGCCUGGCCAGCUAUCCUUCUCUAUGCAAAUGCGUCAAAGCCAUGACUGCUGGAACCCAAAACUGA	0.606
AAUUUUACAUUGUAUUAGAUUUUCUGAUUCUUUUGUAAAUACAGAACUUAAAUAGAAGGCAACAGGAAAUUUAUAUAGGAACUAUUUUCAUUCCACUUGUGUAAGUUAAG	0.976
UAAAAUAAAAAGCCUCCUCUUUCCAUCCCUCAAGUCAACUUUUGUGCUCCAGAAAAUUUUCUAUUCUGUAAGUCUAAGGGUAAAACUUCAAGUAUUAAGAUAAUUUGUAC	0.507
AGACCUGAAUGCUCUAUUUGCCCAAUGCUUCCAGACUCUUAGCUGUUCUGCCCAGCCCCCGUCCCGCUCCCACCUAAAGCCUGAGUUGGCUGAGCCAAAUGCCCAGCACU	0.556
UCCUAUUUUAAAAGAGUUUUAGUAACGGUGAGCUGAGAAAUUCUGGUCAUGGUGAGCAGCAGGCGCAAGCCAUGCAGCCUGUGGACUGUGCGCAUUGAUAUGUGGAGGCU	0.923
AUCUGUCCUUAAUGUCAAAUGAUGAAUCCAGUUUGAAUCAGCUGUCAUUCCAAGCUAUCAUGCUCACGCCAUGUCAACAGCACCAUUUGUACUAAUGCUAAUAAUUCCAU	0.54
UGCUUGUCAGAGCUGUGGCAGUACUUAACUCUGAGGAUGUAGGAGACGUGACUGGCUUUUAGAGUGAGCAUUUCAGUGGUUAGCUAUCAGCUUUUGAAGUCUGGGCAGUU	2.97

Study 2
Target: ABI1, truncated, D143A, DHFR fusion (Arabidopsis thaliana)
Method: DHFR PCA, deep sequencing
Matrix: yeast
Notes: methotrexate growth selection, single substitutions
Together with: (+)-ABA 2500 µM
Reference: wild-type fitted maximum
Reading: higher = stronger binding
Starting sequence: PYL1, truncated, DHFR fusion (Arabidopsis thaliana); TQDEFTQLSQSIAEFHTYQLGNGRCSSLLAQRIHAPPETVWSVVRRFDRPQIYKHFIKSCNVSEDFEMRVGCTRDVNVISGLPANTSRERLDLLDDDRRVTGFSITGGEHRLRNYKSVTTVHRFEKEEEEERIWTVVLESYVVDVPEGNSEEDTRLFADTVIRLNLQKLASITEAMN
Substitution	relative binding score
F157M	87.5%
S150N	95.4%
L156R	90.4%
G148M	85.4%
L156Q	92.7%
R88Q	93.6%
S171G	94%
Q2D	97.8%
E151N	96.2%
T73E	100%
V145S	82.8%
Q19R	102%
T135R	-7.91%
D48P	74.3%

Study 3
Target: Interferon regulatory factor 7, full length, phosphomimetic (IRF7, Homo sapiens, UniProt Q92985, residues 1-503, S101K/S471D/S472D/S475D/S476D/S477D/S483D/S484D/S487D)
Chain of UniProt Q92985 (whole entry, unmodified, looked up): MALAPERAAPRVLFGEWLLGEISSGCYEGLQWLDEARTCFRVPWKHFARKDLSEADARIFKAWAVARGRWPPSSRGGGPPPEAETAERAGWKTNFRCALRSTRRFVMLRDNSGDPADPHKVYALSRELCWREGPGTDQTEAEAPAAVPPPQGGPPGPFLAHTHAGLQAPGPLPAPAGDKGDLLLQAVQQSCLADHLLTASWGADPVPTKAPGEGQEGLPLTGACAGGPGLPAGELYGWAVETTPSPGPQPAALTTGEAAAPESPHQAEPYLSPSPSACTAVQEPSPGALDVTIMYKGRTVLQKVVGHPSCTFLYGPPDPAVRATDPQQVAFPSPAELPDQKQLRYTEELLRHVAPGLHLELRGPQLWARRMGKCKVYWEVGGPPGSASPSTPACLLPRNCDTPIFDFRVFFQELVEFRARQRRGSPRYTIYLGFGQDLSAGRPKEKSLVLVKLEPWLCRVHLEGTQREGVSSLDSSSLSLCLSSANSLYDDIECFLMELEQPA
Method: protein-binding microarray
Form: double-stranded DNA, one strand shown
Matrix: in vitro
Concentration: 250 nM
Notes: 60-bp whole probe
Together with: salmon DNA 0.4 mg/ml
Reference: random background probes
Reading: higher = stronger binding
Shared flanks, not repeated: GCCTAGCAC … GTCTTGATTCGCTTGACGCTGCTG
Strand	log fluorescence [z-score]
GACGGTCTCCATCTCCTGACGTGCTAG	-0.176
TTTCGTATCTTCATTGTCATGTGCTAG	5.16
GACCATTTCGGGTTTCGAGACGTGCTA	4.03
GACGGTTTCGACACTGGGAACGTGCTA	4.33
TTAGATATCAGTTTCGATAAGTGCTAG	4.06
TCATCTTTACTGCTCCAACTGTGCTAG	0.46
TCATTTCTATCTCTGTTACTGTGCTAG	1.9
TGAGGTCTCCTTATCCTTTAGTGCTAG	-0.0946
TTAGGTTTCGGAGTGGGTTAGTGCTAG	2.7
TTAGGAATGGGGTATCGGTTAGTGCTA	0.27
TCAGTTTCTCCTTTCCAACTGTGCTAG	4.26
GAGGATATCAGTCTCGAGACGTGCTAG	-0.0346
AAGCCAGCCAAGGCCACTGTGTGCTAG	-1.02
TTAGAACTGGGGACTGGATAAGTGCTA	-0.509
GACGGACTGGACACTTGGGACGTGCTA	-0.604
TCAACATTGCACAATCTTACTGTGCTA	-0.274
GTAGAACTGAGTTTCGATTAGTGCTAG	7.53
GACGGTTTCGAACTGGGGACGTGCTAG	4.61
TTAGATTTCGGGTAGCGATTAGTGCTA	0.524
TTAGATCTCAGACTGGATTGGTGCTAG	-0.282
CAAACAGAGACCCGGCAAGTGTGCTAG	0.332

Study 4
Target: Histone acetyltransferase KAT6A, winged helix 1, GST fusion (KAT6A, Homo sapiens, UniProt Q92794, residues 1-85)
Method: protein binding microarray
Form: double-stranded DNA, one strand shown
Matrix: in vitro
Concentration: not given
Notes: 8-mer, flanks averaged, mean of 2 arrays, mostly near background
Reference: not given
Reading: higher = stronger binding
Target sequence (chain): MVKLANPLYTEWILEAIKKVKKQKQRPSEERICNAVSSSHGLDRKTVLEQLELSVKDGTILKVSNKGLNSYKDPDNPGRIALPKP
Strand	E-score
ACACGTTG	-0.164
CCCGCCAA	0.271
GCCTCGAA	-0.0496
GCTGCGTA	0.118
ATCCCGTG	0.27
CGTCAGGA	-0.0957
CGGTATCA	0.109
GTGTTGAA	-0.122
GAGGAGTA	-0.128
AAATCACT	-0.234
CAACCGCC	0.186
CATGGGGA	-0.135
CTACAAAA	-0.112
GGTTACTA	0.0727
ATCTCTGG	-0.186
GGGATACA	-0.0856

Further values, each from its own experiment
Sequence	target	test	test system	how to read	quantity	result
SNARRSLNFGGST	human cyclin E2	cyclin docking binding, deep mutational scanning	peptide, yeast cyclin E2-Cln2 system	direction not given	score relative, wild type, peptide	0

A few entries again (study 2):
Substitution	relative binding score
G148M	85.4%
L156Q	92.7%
R88Q	93.6%
S171G	94%
Q2D	97.8%
E151N	96.2%
